Earlier results, collected from citations in different studies.
Numbered parts are unrelated; values within a part may stem from several laboratories.

Block 1
Method: isocratic RP-HPLC, C18 column
Form: peptide
Matrix: water/acetonitrile, 0.1% TFA
Temperature: 25 °C
Quantity: retention coefficient S
LFDNAMLR: 17.4
QTYSK: 24.3
LAGGSASSAHAAFR: 22.2

Block 2
Organism: Bacillus subtilis
Form: peptide
Strain: ATCC 23857
Quantity: MIC
RGTCYNRVGLIIRNFSKLKGKKV: 12 µM
AMTLRKRKFAWYVLSSSLKWLIKKAKKIGVQVCGFE: 21 µM
KKRKGHKMATHKRKKRLRKNRHKKK: 3 µM
DKLISILSLLSKRRKADGFRVKKTQKSSAYKKRF: 34 µM
GVPMGSVIKKRRKRMAKKKHRKLLRKTRHQRRNKK: 51 µM

Single results of other studies
B1: CCL1; sequence looked up; chain KSMQVPFSRCCFSFAEQEIPLRAILCYRNTSSICSNEGLIFKLKRGKEACALDTVGWVQRHRKMLRHCPSKRK
pegcetacoplan — AUC(0-inf) (human; 360 mg single dose, arithmetic mean): 30000 µg·h/mL
B1 (CCL1) — EC50 (CCR8 F84A mutant; IP accumulation, agonist): 4 nM

Excerpt of the above (block 2):
DKLISILSLLSKRRKADGFRVKKTQKSSAYKKRF: 34 µM
GVPMGSVIKKRRKRMAKKKHRKLLRKTRHQRRNKK: 51 µM
